Results pooled from the literature.
Parts stem from different laboratories: compare values within a part only. “And” joins repeats or separate records; there may be more than shown.
UniProt Q9UM73, sequence (whole entry, unmodified, looked up): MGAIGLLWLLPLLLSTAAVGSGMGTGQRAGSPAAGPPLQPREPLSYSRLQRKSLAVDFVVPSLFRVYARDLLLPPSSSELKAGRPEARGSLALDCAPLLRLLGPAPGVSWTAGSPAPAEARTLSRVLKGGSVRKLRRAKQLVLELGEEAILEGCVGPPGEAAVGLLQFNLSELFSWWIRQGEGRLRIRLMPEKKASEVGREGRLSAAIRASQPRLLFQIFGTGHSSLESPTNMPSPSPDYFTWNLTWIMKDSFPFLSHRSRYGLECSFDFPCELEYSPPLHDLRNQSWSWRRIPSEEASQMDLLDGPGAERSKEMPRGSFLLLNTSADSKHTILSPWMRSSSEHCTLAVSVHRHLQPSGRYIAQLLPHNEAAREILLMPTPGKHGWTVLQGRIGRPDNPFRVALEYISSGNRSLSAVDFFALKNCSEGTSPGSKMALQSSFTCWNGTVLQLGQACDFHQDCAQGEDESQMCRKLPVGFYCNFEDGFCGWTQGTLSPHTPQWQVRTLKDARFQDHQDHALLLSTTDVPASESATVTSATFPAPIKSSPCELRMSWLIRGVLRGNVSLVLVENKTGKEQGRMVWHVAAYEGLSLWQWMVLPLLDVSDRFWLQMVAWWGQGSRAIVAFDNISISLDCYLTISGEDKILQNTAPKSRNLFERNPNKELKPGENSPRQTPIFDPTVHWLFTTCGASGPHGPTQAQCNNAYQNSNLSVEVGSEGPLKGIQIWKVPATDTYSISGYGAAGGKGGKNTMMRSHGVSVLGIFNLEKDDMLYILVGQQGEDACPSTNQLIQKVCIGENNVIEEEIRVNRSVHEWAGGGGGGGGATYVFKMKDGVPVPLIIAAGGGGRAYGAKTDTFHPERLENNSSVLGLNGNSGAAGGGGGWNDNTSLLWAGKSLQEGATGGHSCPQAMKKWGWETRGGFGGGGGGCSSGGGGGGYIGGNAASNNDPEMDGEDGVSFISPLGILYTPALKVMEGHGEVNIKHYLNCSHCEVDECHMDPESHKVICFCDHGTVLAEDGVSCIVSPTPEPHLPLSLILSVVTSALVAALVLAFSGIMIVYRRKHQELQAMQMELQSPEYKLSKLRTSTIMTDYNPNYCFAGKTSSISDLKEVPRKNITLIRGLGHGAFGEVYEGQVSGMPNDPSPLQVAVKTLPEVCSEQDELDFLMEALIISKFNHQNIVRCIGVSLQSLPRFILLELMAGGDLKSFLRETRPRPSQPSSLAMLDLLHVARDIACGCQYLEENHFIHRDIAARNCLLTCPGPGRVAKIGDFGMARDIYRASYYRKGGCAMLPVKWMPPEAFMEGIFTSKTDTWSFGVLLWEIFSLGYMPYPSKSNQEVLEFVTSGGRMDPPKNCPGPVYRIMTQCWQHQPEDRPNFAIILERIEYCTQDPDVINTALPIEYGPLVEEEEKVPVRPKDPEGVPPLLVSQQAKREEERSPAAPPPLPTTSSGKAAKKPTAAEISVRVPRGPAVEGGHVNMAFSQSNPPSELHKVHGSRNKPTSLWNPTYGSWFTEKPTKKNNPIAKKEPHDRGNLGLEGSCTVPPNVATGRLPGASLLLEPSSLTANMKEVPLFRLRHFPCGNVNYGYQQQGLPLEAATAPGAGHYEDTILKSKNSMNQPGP
UniProt P31152, sequence (whole entry, looked up): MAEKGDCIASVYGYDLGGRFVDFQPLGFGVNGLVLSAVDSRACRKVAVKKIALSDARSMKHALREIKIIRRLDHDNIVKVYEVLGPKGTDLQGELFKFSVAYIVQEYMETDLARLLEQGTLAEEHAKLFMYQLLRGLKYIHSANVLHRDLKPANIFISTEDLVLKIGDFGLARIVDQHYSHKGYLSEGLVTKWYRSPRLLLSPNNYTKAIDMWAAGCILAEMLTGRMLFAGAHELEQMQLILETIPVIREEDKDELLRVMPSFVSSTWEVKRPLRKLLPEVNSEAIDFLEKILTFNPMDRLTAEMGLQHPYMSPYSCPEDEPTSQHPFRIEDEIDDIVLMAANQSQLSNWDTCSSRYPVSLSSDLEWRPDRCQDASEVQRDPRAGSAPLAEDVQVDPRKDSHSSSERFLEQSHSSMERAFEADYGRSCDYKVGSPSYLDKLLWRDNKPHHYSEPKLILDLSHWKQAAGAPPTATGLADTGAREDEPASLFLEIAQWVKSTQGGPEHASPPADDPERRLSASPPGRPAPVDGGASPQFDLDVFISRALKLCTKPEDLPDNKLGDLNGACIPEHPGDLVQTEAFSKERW
UniProt Q04912, sequence (whole entry, looked up): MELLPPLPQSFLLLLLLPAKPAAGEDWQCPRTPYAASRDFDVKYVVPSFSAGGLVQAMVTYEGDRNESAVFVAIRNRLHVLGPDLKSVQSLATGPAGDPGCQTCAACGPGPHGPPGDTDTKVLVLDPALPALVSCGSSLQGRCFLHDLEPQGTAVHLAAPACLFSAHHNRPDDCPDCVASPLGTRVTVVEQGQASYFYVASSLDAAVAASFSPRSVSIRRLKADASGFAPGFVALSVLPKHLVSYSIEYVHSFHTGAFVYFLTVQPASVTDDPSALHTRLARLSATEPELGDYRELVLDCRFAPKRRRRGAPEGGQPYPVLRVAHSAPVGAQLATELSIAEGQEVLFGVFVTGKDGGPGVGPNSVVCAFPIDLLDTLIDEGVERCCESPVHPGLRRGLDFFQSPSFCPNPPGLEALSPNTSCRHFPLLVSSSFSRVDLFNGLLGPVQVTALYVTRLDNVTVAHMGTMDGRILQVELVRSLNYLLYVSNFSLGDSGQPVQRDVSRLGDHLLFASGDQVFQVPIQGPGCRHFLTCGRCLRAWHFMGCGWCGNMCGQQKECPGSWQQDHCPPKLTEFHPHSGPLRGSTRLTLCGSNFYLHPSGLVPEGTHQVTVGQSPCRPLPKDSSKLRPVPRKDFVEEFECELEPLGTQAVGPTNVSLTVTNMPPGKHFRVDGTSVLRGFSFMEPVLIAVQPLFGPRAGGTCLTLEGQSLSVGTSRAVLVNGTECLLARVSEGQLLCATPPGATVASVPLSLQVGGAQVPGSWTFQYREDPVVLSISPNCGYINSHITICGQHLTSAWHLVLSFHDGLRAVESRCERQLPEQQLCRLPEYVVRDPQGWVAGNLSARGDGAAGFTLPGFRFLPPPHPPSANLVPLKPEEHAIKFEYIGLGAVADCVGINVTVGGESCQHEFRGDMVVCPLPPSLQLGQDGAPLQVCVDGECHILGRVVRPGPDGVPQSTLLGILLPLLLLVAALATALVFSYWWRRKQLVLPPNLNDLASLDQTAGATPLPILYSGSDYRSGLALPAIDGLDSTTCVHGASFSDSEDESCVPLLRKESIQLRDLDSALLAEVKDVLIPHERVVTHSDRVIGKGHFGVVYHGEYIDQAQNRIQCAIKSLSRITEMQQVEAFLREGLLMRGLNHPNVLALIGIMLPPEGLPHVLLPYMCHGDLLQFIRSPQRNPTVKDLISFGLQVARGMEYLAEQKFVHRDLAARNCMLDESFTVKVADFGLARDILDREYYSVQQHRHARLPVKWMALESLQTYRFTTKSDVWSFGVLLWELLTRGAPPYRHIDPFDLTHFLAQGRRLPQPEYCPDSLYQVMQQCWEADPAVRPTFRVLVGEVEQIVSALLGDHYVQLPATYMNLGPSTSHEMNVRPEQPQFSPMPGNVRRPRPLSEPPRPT

Set 1
SMILES: CC[C@@]1(c2ccccc2)C2=C(CC(C)(C)CC2=O)Nc2n[nH]cc21
Concentration: 1 µM
Measurement: remaining binding
Macrophage colony-stimulating factor 1 receptor (CSF1R, Homo sapiens, UniProt P07333); kinase binding, KINOMEscan; reference: DMSO control: 100%
Mitogen-activated protein kinase 8 (MAPK8, Homo sapiens, UniProt P45983); binding, competition with immobilised ligand: 87%
RAF proto-oncogene serine/threonine-protein kinase (RAF1, Homo sapiens, UniProt P04049); kinase binding, KINOMEscan; reference: DMSO control: 100%
Serine/threonine-protein kinase PLK2 (PLK2, Homo sapiens, UniProt Q9NYY3); binding, competition with immobilised ligand: 85%
Myotonin-protein kinase (DMPK, Homo sapiens, UniProt Q09013); binding, competition with immobilised ligand: 96%
Mast/stem cell growth factor receptor Kit (KIT, Homo sapiens, UniProt P10721, T670I/V559D); binding, competition with immobilised ligand: 83%
Mitogen-activated protein kinase kinase kinase kinase 2 (MAP4K2, Homo sapiens, UniProt Q12851); binding, competition with immobilised ligand: 100%
Serine/threonine-protein kinase Chk2 (CHEK2, Homo sapiens, UniProt O96017); kinase binding, KINOMEscan; reference: DMSO control: 100%
Ribosomal protein S6 kinase alpha-4, N-terminal kinase domain (RPS6KA4, Homo sapiens, UniProt O75676); binding, competition with immobilised ligand: 100%
Serine/threonine-protein kinase ULK1 (ULK1, Homo sapiens, UniProt O75385); kinase binding, KINOMEscan; reference: DMSO control: 100%
Phosphatidylinositol 4,5-bisphosphate 3-kinase catalytic subunit alpha isoform (PIK3CA, Homo sapiens, UniProt P42336); kinase binding, KINOMEscan; reference: DMSO control: 100%
Mitogen-activated protein kinase 4 (MAPK4, Homo sapiens, UniProt P31152); binding, competition with immobilised ligand: 100%
Serine/threonine-protein kinase PAK 4 (PAK4, Homo sapiens, UniProt O96013); kinase binding, KINOMEscan; reference: DMSO control: 100%
ALK tyrosine kinase receptor (ALK, Homo sapiens, UniProt Q9UM73, L1196M); binding, competition with immobilised ligand: 76%
Serine/threonine-protein kinase MARK2 (MARK2, Homo sapiens, UniProt Q7KZI7); kinase binding, KINOMEscan; reference: DMSO control: 67%
Phosphatidylinositol 4,5-bisphosphate 3-kinase catalytic subunit delta isoform (PIK3CD, Homo sapiens, UniProt O00329); kinase binding, KINOMEscan; reference: DMSO control: 100%
Tyrosine-protein kinase TXK (TXK, Homo sapiens, UniProt P42681); binding, competition with immobilised ligand: 100%

Set 2
SMILES: O=C(Nc1ccccc1)Nc1cccc(Oc2ccc3nccn3n2)c1
Effect on: binding
Concentration: 1 µM
Measurement: remaining binding
Cyclin-dependent kinase 2 homolog (CRK2, Plasmodium falciparum, UniProt P61075): 77%
ALK tyrosine kinase receptor (ALK, Homo sapiens, UniProt Q9UM73): 83%
Serine/threonine-protein kinase ULK2 (ULK2, Homo sapiens, UniProt Q8IYT8): 100%
BMP-2-inducible protein kinase (BMP2K, Homo sapiens, UniProt Q9NSY1): 100%
Serine/threonine-protein kinase Nek9 (NEK9, Homo sapiens, UniProt Q8TD19): 64%
Casein kinase I isoform delta (CSNK1D, Homo sapiens, UniProt P48730): 100%
Dual specificity mitogen-activated protein kinase kinase 7 (MAP2K7, Homo sapiens, UniProt O14733): 100%
Testis-specific serine/threonine-protein kinase 3 (TSSK3, Homo sapiens, UniProt Q96PN8): 100%
Macrophage-stimulating protein receptor (MST1R, Homo sapiens, UniProt Q04912): 100%
Cyclin-dependent kinase-like 2 (CDKL2, Homo sapiens, UniProt Q92772); competition with immobilised ligand: 96%
ALK tyrosine kinase receptor (ALK, Homo sapiens, UniProt Q9UM73, L1196M): 100%
Tyrosine-protein kinase Yes (YES1, Homo sapiens, UniProt P07947); competition with immobilised ligand: 100%
Glycogen synthase kinase-3 beta (GSK3B, Homo sapiens, UniProt P49841): 100%
Serine/threonine-protein kinase 16 (STK16, Homo sapiens, UniProt O75716): 100%
Tyrosine-protein kinase Fyn (FYN, Homo sapiens, UniProt P06241); competition with immobilised ligand: 100%
STE20/SPS1-related proline-alanine-rich protein kinase (STK39, Homo sapiens, UniProt Q9UEW8): 100%
Tyrosine-protein kinase Lyn (LYN, Homo sapiens, UniProt P07948); competition with immobilised ligand: 100%
Mitogen-activated protein kinase 4 (MAPK4, Homo sapiens, UniProt P31152): 100%
Mitogen-activated protein kinase kinase kinase 11 (MAP3K11, Homo sapiens, UniProt Q16584): 100%
Bone morphogenetic protein receptor type-1A (BMPR1A, Homo sapiens, UniProt P36894); competition with immobilised ligand: 100%

Set 3
Compound: C[C@@H]1CN(c2ccc(-c3cc(C(=O)NCCOCCOCCOCCOCCNC(=O)Cn4cc(-c5[nH]cc(C(=O)N[C@@H](CC(N)=O)c6ccc(F)c(Cl)c6)c5-c5ccc(Cl)cc5F)cn4)ccc3F)cc2NC(=O)c2c[nH]c(=O)cc2C(F)(F)F)C[C@H](C)N1C
Effect on: thermal unfolding
Technique: differential scanning fluorimetry
Concentration: 5.5 µM
Direction: higher = more unfolded
Measurement: SYPRO Orange fluorescence
WDR5: WD repeat-containing protein 5 (WDR5, Homo sapiens, UniProt P61964)
DCAF1: DDB1- and CUL4-associated factor 1 (DCAF1, Homo sapiens, UniProt Q9Y4B6)
UniProt Q9Y4B6, sequence (whole entry, looked up): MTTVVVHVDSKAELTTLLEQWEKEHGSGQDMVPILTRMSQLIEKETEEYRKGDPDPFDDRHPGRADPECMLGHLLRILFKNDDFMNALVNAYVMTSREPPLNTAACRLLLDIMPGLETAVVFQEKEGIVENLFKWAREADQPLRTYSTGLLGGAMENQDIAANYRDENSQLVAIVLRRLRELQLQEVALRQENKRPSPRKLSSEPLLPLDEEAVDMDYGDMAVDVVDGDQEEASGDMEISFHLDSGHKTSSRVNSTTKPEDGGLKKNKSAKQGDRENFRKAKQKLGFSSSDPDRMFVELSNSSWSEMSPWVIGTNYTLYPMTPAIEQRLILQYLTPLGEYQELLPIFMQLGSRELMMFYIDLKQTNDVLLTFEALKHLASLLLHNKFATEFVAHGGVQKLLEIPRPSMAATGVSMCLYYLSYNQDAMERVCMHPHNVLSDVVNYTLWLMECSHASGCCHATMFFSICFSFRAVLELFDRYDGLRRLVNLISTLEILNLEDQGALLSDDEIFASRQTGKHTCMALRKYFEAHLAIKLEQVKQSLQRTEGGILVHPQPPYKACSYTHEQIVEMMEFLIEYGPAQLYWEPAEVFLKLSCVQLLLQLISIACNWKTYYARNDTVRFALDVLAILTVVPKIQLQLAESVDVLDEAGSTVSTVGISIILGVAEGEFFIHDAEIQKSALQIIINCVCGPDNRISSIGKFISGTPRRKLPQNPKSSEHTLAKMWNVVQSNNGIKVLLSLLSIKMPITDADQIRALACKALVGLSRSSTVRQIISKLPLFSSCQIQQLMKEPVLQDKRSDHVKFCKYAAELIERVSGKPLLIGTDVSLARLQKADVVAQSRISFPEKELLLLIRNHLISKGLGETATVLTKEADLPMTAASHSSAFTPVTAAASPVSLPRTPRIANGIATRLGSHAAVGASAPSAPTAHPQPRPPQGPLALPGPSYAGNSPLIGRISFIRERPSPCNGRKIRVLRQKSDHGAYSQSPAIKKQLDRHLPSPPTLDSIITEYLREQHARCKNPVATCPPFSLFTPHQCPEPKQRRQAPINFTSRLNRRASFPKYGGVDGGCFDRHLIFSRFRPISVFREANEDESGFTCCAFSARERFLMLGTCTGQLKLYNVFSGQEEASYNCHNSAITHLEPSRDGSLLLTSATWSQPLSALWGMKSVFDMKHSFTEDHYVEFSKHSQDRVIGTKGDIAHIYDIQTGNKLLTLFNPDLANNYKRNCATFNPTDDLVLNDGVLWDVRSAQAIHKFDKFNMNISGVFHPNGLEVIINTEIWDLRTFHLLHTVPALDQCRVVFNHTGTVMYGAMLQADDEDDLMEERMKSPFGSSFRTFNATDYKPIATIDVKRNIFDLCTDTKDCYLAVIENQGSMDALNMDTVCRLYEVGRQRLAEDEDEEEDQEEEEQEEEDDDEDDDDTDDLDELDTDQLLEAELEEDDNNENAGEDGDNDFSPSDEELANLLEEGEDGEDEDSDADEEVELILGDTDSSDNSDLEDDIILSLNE
WDR5; 32.8 °C: 14300 a.u.
DCAF1; 29.6 °C: 8170 a.u.
WDR5; 34 °C: 14400 a.u.
DCAF1; 80.61 °C: 43700 a.u.
WDR5; 94.41 °C: 38600 a.u.
DCAF1; 35.8 °C: 9110 a.u.
WDR5; 93.41 °C: 39800 a.u.

Set 4
Compound: CCN1CCN(Cc2ccc(COc3c(-c4c(C)c(F)cc5[nH]ncc45)c(C4CC4)cc4c(N5C[C@@H]6C[C@H]5CN6)nc(OC5CCOCC5)nc34)cc2)C(=O)C1
Target: GTPase KRas, GDP-bound (KRAS, Homo sapiens, UniProt P01116, G12D)
Measurement: Kd
SPR, multi-cycle; immobilized KRAS G12D; binary, geometric mean: 1.08 nM
SPR; binary without VCB: 1.1 nM
binder, multi-cycle SPR; binary, without VCB: 0.631 nM and 3.53 nM and 0.964 nM and 0.565 nM and 1.21 nM

Repeated from above (set 4):
SPR, multi-cycle; immobilized KRAS G12D; binary, geometric mean: 1.08 nM
SPR; binary without VCB: 1.1 nM
binder, multi-cycle SPR; binary, without VCB: 0.631 nM and 3.53 nM and 0.964 nM and 0.565 nM and 1.21 nM
